{"data": "Experimental data pooled from the literature", "note": "A part holds a random share of what one study measured.", "chain of UniProt P51451 (whole entry, looked up)": "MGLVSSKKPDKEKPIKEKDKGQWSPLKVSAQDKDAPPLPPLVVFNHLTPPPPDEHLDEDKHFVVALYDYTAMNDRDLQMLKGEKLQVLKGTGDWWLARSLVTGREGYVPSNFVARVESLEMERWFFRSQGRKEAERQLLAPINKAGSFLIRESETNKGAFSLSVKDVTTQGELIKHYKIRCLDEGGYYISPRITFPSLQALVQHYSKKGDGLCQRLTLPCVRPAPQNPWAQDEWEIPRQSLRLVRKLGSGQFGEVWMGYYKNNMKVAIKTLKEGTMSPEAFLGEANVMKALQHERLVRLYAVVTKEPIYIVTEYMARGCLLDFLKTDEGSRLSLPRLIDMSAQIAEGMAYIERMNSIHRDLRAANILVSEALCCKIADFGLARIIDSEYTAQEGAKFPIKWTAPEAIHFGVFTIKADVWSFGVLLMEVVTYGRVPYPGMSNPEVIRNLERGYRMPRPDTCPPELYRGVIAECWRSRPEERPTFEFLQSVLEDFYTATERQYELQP", "chain of UniProt Q96RR4 (whole entry, looked up)": "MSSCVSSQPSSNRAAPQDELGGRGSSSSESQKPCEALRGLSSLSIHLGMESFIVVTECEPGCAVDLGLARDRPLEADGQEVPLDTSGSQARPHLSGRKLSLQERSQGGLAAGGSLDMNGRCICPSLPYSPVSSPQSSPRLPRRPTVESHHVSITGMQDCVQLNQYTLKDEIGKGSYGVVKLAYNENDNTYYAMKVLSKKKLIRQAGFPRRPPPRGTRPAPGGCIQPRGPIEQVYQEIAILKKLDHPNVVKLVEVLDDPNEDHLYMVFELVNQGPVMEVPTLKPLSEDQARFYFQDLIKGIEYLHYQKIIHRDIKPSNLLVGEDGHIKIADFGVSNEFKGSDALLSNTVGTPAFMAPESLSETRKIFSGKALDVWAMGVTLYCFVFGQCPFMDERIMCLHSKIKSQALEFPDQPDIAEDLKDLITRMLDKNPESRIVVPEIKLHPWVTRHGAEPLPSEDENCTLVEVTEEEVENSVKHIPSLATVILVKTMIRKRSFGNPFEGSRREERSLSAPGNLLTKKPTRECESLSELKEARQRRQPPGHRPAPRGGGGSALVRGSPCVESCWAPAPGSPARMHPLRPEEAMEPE", "chain of UniProt Q59H18 (whole entry, looked up)": "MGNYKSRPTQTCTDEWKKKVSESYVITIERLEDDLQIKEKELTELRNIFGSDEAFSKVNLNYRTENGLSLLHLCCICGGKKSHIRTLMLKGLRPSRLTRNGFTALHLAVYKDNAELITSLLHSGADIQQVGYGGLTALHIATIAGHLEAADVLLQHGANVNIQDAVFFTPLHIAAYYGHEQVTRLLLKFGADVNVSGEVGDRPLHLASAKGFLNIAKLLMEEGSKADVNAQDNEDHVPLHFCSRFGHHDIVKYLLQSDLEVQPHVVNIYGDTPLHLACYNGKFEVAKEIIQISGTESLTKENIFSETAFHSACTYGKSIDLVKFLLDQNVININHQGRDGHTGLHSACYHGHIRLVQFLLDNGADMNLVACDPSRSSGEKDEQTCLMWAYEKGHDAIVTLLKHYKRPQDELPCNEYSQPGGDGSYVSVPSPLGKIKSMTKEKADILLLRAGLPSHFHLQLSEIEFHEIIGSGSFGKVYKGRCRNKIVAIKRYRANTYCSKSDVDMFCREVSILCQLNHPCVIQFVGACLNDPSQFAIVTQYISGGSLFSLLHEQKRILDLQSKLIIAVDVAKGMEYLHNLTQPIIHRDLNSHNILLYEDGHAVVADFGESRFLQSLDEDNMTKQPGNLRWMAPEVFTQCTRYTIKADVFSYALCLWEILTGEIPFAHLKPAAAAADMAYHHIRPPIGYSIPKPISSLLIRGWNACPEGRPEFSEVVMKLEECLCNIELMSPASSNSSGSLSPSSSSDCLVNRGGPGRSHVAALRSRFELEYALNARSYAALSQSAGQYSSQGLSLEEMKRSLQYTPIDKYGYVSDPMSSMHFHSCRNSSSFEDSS", "chain of UniProt Q8NEB9 (whole entry, looked up)": "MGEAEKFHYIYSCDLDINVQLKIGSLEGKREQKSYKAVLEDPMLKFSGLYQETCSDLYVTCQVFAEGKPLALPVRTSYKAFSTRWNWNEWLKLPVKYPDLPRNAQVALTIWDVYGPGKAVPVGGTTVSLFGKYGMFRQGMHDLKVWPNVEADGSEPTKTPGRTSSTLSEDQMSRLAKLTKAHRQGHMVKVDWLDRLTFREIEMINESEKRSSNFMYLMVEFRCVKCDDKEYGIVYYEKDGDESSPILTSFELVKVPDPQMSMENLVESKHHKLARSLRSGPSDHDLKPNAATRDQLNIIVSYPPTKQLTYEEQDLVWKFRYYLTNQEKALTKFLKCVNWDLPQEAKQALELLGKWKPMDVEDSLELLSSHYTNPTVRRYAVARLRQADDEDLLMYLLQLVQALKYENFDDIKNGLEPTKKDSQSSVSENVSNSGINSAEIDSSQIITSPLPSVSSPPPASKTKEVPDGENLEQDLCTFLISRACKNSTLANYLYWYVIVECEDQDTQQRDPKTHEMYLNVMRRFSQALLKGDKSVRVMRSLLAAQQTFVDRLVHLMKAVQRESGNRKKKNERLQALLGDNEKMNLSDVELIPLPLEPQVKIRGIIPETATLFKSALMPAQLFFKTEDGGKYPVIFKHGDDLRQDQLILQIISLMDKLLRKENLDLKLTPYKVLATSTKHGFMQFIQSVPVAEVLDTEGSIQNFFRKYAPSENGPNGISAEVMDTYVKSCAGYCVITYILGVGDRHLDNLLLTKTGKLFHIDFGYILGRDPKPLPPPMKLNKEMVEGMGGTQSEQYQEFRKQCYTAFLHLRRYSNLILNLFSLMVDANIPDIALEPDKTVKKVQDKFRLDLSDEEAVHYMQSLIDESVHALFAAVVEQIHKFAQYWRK", "chain of UniProt P17948 (whole entry, looked up)": "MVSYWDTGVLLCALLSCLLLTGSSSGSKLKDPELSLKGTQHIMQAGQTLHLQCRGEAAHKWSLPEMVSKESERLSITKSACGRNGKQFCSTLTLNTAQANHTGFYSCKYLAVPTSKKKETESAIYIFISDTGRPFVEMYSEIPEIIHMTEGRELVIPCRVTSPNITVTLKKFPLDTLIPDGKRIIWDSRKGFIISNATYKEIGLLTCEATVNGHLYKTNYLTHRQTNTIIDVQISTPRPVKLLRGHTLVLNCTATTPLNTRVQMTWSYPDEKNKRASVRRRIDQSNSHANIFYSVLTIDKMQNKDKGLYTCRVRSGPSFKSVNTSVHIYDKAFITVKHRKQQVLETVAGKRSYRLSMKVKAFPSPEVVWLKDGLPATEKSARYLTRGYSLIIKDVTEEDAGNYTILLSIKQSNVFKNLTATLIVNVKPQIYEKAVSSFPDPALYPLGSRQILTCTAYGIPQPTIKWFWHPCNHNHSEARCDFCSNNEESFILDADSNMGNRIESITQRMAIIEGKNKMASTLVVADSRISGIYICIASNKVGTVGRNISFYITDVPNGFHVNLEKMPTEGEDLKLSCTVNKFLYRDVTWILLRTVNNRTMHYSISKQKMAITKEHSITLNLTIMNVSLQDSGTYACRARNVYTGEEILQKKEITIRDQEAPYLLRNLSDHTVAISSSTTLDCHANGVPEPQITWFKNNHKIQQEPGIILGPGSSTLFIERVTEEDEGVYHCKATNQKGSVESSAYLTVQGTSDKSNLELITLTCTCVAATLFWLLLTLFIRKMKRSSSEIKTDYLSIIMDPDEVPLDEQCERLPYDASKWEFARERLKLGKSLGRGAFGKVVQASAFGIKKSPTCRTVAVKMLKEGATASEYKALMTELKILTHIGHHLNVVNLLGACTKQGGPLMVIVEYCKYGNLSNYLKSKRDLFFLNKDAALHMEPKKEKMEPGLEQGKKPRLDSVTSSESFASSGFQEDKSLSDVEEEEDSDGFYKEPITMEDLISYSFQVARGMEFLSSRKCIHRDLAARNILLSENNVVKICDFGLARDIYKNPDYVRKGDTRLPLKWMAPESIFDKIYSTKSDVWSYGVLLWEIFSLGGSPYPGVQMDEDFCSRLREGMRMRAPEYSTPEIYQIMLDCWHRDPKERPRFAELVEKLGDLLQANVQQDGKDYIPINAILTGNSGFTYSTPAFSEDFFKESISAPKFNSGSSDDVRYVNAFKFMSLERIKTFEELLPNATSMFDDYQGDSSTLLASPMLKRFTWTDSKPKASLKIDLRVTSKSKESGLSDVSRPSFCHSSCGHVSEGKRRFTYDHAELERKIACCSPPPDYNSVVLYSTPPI", "chain of UniProt Q9UQM7 (whole entry, looked up)": "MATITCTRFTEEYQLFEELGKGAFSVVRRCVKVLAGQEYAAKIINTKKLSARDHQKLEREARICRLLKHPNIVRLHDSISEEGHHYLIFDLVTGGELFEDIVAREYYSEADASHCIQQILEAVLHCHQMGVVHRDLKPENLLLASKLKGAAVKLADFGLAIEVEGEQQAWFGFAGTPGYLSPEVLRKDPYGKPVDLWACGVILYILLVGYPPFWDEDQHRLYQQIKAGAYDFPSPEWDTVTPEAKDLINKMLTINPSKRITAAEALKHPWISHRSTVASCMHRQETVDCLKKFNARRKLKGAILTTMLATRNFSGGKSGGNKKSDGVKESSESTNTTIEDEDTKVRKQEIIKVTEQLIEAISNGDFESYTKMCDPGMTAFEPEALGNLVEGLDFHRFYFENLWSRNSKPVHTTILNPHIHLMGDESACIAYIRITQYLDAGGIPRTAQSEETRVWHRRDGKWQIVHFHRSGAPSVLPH"}
{"data": "Block 1", "organism": "Sarcocystis neurona", "observed": "parasite growth", "concentration": "10 µM", "time": "96 h", "notes": "first screen", "baseline": "untreated"}
{"Structure (SMILES)": "CC1=C(CC(=O)O)c2cc(F)ccc2/C1=C\\c1ccc([S+](C)[O-])cc1 (stereo not drawn)", "log2 fold change": 0.32}
{"Structure (SMILES)": "Clc1ccc(COC(Cn2ccnc2)c2ccc(Cl)cc2Cl)cc1 (stereo not drawn)", "log2 fold change": 0.06}
{"Structure (SMILES)": "CNC(=C[N+](=O)[O-])NCCSCc1csc(CN(C)C)n1", "log2 fold change": 0.0555}
{"Structure (SMILES)": "OC[C@H]1O[C@@H](Oc2cc(O)cc(/C=C/c3ccc(O)cc3)c2)[C@H](O)[C@@H](O)[C@@H]1O", "log2 fold change": 0.29}
{"Structure (SMILES)": "N[C@@H](C(=O)N[C@@H]1C(=O)N2C(C(=O)O)=C(Cl)CS[C@H]12)c1ccccc1", "log2 fold change": -0.0758}
{"Structure (SMILES)": "O=C(O)c1cc(/N=N/c2ccc(S(=O)(=O)Nc3ccccn3)cc2)ccc1O", "log2 fold change": 0.05}
{"data": "Block 2", "Structure (SMILES)": "O=C(Nc1cnc(Oc2ccc(F)cc2)nc1)N1CCc2ncccc2[C@@H]1c1ccc(F)cc1", "observed": "cell-free assay", "method": "competition with immobilised ligand", "concentration": "1 µM"}
{"target": "FLT3 (Homo sapiens, UniProt P36888, ITD)", "remaining binding": "92%"}
{"target": "FLT1 (Homo sapiens, UniProt P17948)", "remaining binding": "88%"}
{"target": "ACVR2A (Homo sapiens, UniProt P27037)", "remaining binding": "83%"}
{"target": "PRKG2 (Homo sapiens, UniProt Q13237)", "remaining binding": "100%"}
{"target": "PIK3C3 (Homo sapiens, UniProt Q8NEB9)", "remaining binding": "100%"}
{"target": "PAK1 (Homo sapiens, UniProt Q13153)", "remaining binding": "71%"}
{"target": "TNNI3K (Homo sapiens, UniProt Q59H18)", "remaining binding": "100%"}
{"target": "CAMK2D (Homo sapiens, UniProt Q13557)", "remaining binding": "92%"}
{"target": "CAMKK2 (Homo sapiens, UniProt Q96RR4)", "remaining binding": "93%"}
{"target": "BLK (Homo sapiens, UniProt P51451)", "remaining binding": "80%"}
{"data": "Block 3", "target": "Calcium/calmodulin-dependent protein kinase type 1 (CAMK1, Homo sapiens, UniProt Q14012)", "observed": "enzyme activity", "action": "inhibitor", "concentration": "0.5 µM", "baseline": "control", "chain of UniProt Q14012 (whole entry, looked up)": "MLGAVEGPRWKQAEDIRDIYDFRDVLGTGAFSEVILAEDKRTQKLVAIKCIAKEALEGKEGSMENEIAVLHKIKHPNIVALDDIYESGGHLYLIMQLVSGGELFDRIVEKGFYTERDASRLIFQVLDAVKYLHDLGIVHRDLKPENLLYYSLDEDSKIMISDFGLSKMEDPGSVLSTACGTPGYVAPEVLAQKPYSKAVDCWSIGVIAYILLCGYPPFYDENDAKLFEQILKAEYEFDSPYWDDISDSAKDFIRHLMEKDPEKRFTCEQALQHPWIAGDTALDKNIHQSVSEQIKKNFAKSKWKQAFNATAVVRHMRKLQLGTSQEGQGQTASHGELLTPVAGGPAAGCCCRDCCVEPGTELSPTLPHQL"}
{"SMILES": "Cc1ccc(NC(=O)c2ccc(CN3CCN(C)CC3)cc2)cc1Nc1nc(-c2cccnc2)cs1", "remaining activity": "102%"}
{"SMILES": "COc1cc2nccc(Oc3ccc(NC(=S)NC(=O)c4ccccc4C)cc3)c2cc1OC", "remaining activity": "101%"}
{"SMILES": "COc1cc2ncnc(Nc3ccc(Oc4ccccc4)cc3)c2cc1OC", "remaining activity": "105%"}
{"SMILES": "COc1ccc(C(=O)Nc2sc3c(c2C(N)=O)CCCC3)cc1OC", "remaining activity": "90.9%"}
{"SMILES": "OCC(O)CCON=C1C(c2c(O)[nH]c3ccccc23)=Nc2ccccc21 (stereo not drawn)", "remaining activity": "76%"}
{"SMILES": "Nc1ncnc2n[nH]c(Nc3ccc(F)cc3)c12", "remaining activity": "103%"}
{"SMILES": "O=C(O)c1ccc2c3c1cccc3c(=O)n1c3ccccc3nc21", "remaining activity": "101%"}
{"SMILES": "Cn1sc(=O)n(Cc2ccccc2)c1=O", "remaining activity": "100%"}
{"SMILES": "O=C(Nc1cccc(Nc2cc(Nc3cccc(C(F)(F)F)c3)ncn2)c1)C1CC1", "remaining activity": "108%"}
{"SMILES": "CO[C@H]1C[C@@H]2CC[C@@H](C)[C@@](O)(O2)C(=O)C(=O)N2CCCC[C@H]2C(=O)O[C@H]([C@H](C)C[C@@H]2CC[C@@H](O)[C@H](OC)C2)CC(=O)[C@H](C)/C=C(\\C)[C@@H](O)[C@@H](OC)C(=O)[C@H](C)C[C@H](C)/C=C/C=C/C=C/1C", "remaining activity": "111%"}
{"SMILES": "CC(C)[C@H](CO)Nc1nc(Nc2cc(N)cc(Cl)c2)c2ncn(C(C)C)c2n1", "remaining activity": "95.3%"}
{"SMILES": "O=C(CCCc1ccc(-c2ccccc2F)cc1)Nc1ccc(O)cc1", "remaining activity": "101%"}
{"SMILES": "O=c1c2ccccc2[nH]c(=S)n1CCN1CCC(=C(c2ccc(F)cc2)c2ccc(F)cc2)CC1", "remaining activity": "98.6%"}
{"SMILES": "Oc1ccc(-c2nc(-c3ccncc3)c(-c3ccc(F)cc3)[nH]2)cc1", "remaining activity": "108%"}
{"SMILES": "Nc1ccc2ncnc(NCCc3ccc(Oc4ccccc4)cc3)c2c1", "remaining activity": "107%"}
{"SMILES": "Cc1nc(-c2ccccc2)c(-c2ccncc2)o1", "remaining activity": "105%"}
{"data": "Other studies, line by line"}
{"SMILES": "CCCCC[C@@H](O)[C@H]1C(=O)O[C@H](C)[C@@H](O)\\C=C/C=C\\C=C/C=C\\C=C(\\C)[C@@H](O)C[C@H](O)C[C@H](O)C[C@H](O)C[C@H](O)C[C@H](O)C[C@@H]1O", "target": "Calcium/calmodulin-dependent protein kinase type II subunit alpha (CAMK2A, Homo sapiens, UniProt Q9UQM7)", "assay": "enzyme activity, inhibitor", "conditions": "10 µM", "measurement": "inhibition", "result": "16%"}
